Published values pooled from the literature.
Each numbered part is a random draw from the data of one study; scales do not carry over between parts. Substitutions count along the parent as printed.

Series 1
Target: CCND3, cyclin fold, Cln2 fusion (human)
Technique: yeast growth competition, sequencing
Sample: yeast
Notes: weak parent motif
Reference: not given
Reading: higher = stronger binding
Parent: PKMYT1 docking peptide (human); SFEPRNLLSLFED; partner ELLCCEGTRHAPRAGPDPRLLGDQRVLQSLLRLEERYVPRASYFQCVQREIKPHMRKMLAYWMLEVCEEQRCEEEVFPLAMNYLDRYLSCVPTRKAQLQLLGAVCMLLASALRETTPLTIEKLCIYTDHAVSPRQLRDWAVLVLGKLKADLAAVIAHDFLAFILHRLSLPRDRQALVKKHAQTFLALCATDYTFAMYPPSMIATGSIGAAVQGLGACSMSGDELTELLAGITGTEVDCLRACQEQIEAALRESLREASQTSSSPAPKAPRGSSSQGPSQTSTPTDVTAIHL
Change	normalised enrichment score
SFEPRNLLSLWED [F11W]	0.161
SFLPRNLLSLFED [E3L]	0.0733
SFEPRNLLHLFED [S9H]	0.113
SFEGRNLLSLFED [P4G]	0.0863
SFEPKNLLSLLED [R5K F11L]	-0.291
SFEPRNLLWLFED [S9W]	0.116
SFEPRNLNSLFED [L8N]	0.136
SFEPRNLLSLFEY [D13Y]	0.0557
SFAPRNLLSLFED [E3A]	0.0295
SFEPRNDLSLFED [L7D]	0.146
SFHPRNLLSLFED [E3H]	0.128
SFEPRNLLFLFED [S9F]	0.0604
SFEPRNSLSLFED [L7S]	0.136
SFEPRNLLSLFDD [E12D]	0.14
SFEPRNLLSNFED [L10N]	0.184
SFEHRNLLSLFED [P4H]	0.0736
SFEPRHLLSLFED [N6H]	0.087
SFEFRNLLSLFED [P4F]	0.118
SFEPRNLHSLFED [L8H]	0.13
FFEPRNLLSLFED [S1F]	0.129
SFEPRNLLSLFEM [D13M]	0.143
SFEPSNLLSLFED [R5S]	0.0745
SFEPRNLLSSFED [L10S]	-0.00109
SFEPRNLLSLFRD [E12R]	0.159
SFEPRNLFSLFED [L8F]	0.0697

Series 2
Target: Interferon regulatory factor 7, full length, phosphomimetic (IRF7, Homo sapiens, UniProt Q92985, residues 1-503, S101K/S471D/S472D/S475D/S476D/S477D/S483D/S484D/S487D)
Technique: protein-binding microarray
Molecule type: double-stranded DNA, one strand shown
Sample: in vitro
Concentration: 250 nM
Notes: 60-bp whole probe
With: salmon DNA 0.4 mg/ml
Reference: random background probes
Reading: higher = stronger binding
All sequences stand within: GCCTAGCAC … GTCTTGATTCGCTTGACGCTGCTG
Construct (chain): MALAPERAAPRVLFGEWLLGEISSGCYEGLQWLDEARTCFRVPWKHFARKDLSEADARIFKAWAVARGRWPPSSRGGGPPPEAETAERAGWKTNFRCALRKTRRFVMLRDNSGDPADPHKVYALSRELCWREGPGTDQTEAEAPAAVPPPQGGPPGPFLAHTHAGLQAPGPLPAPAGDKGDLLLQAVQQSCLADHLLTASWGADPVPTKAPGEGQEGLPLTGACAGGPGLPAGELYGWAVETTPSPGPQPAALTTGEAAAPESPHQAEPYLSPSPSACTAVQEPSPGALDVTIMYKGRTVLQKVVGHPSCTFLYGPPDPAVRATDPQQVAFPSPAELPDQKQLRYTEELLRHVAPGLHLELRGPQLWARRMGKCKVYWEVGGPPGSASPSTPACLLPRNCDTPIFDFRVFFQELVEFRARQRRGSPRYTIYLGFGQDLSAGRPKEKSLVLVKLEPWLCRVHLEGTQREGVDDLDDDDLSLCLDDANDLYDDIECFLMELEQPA
Sequence	log fluorescence
TTAGAACTGGGGTATGGATTAGTGCTA	-0.445 z-score
ATAGGTATCGACTATCGGTTAGTGCTA	0.326 z-score
GACGGACTGCATCTCCTGACGTGCTAG	-0.874 z-score
TTAGAACTGGGATATCGATTAGTGCTA	-0.0895 z-score
CTGCATTACAGCTATTTTTAGGTGCTA	0.189 z-score
TCAATTCCCTTTCTCAAACTGTGCTAG	2.72 z-score
GACGTTTTCGGTTTCGGGACGTGCTAG	9.25 z-score
TAAGGTTTCGACTATCGGTTAGTGCTA	5.97 z-score
GTAGATTTCGGGACTGGATTAGTGCTA	-0.214 z-score
TTATGTTTCCTTATCCTTTAGTGCTAG	2.21 z-score
TTAGATTCCAGTTTCTATTAGTGCTAG	5.76 z-score
TCATGGTTCTGCTTCTTACTGTGCTAG	0.13 z-score
TTAGATATCAGGCTCGATTAGTGCTAG	0.634 z-score
TTAGATATCGGGACTGGATCAGTGCTA	-0.147 z-score
TGTGTTATTAAATTTTCACGGGTGCTA	0.523 z-score
GACGGTATCGGTATTGGGACGTGCTAG	1.27 z-score
ATCACTTTCCACTTGTCTTTGTGCTAG	2.61 z-score
TTAGGTATCGGACTGGGATAGTGCTAG	0.258 z-score
TTAGGACTGGACTTTCGGCTAGTGCTA	-0.372 z-score
GACGAACAGGGGTATCGAGACGTGCTA	-0.593 z-score
GACCTTCACCTCTCTGTCCCCGTGCTA	-0.0786 z-score
TTTCTTTTGCTTGTTCTTAGCGTGCTA	0.94 z-score
GACGACCTGGGGTTTCGAGACGTGCTA	1.77 z-score
CTTTAGAGCAAGAACAGCCTGTGCTAG	-0.302 z-score
GACGATATCGAGTTTCGAGACGTGCTA	3.18 z-score

Series 3
Target: Sal-like protein 4, full length isoform A (SALL4, Homo sapiens, UniProt Q9UJQ4, residues 1-1053)
Chain of UniProt Q9UJQ4 (whole entry, looked up): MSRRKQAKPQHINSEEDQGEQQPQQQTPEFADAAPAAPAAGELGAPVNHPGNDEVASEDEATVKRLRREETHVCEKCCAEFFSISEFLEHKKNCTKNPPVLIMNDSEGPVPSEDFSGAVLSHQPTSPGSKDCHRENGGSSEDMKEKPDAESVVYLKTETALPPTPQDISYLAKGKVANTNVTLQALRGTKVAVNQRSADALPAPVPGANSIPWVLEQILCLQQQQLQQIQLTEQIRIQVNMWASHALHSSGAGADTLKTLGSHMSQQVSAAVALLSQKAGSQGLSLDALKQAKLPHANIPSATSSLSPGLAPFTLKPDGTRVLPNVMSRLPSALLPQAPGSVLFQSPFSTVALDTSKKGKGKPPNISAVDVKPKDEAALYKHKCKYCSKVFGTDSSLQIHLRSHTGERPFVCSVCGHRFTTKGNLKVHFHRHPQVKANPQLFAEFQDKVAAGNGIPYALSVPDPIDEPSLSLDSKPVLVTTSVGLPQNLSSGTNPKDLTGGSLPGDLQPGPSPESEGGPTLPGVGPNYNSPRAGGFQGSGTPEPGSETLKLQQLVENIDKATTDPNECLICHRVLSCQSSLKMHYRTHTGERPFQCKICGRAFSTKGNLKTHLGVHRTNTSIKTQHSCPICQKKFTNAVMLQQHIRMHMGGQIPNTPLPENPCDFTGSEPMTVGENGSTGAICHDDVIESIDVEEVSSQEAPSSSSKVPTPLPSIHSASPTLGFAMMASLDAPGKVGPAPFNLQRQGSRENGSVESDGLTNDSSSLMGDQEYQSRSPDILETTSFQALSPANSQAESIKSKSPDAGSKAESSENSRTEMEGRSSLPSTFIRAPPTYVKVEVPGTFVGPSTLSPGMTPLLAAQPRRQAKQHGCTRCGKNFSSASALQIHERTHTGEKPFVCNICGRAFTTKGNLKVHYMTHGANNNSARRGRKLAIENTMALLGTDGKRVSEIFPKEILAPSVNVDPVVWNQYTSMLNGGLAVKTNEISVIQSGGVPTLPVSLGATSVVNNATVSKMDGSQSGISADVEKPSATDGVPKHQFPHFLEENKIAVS
Technique: universal PBM
Molecule type: double-stranded DNA, one strand shown
Sample: in vitro
Concentration: 600 nM
Notes: 8-mer, flanks averaged, mean of replicates
Reading: higher = stronger binding
Sequence	E-score
CCAACCTC	-0.0777
ATTTCGAC	-0.0631
AGATTCCT	-0.00412
CAGCAGGA	-0.0868
CCTGACGC	-0.341
ACAAACTG	-0.101
GAAGATAA	0.283
AAGAGTGA	0.0981
ATCCCCGA	-0.0812
CCCCCCAC	-0.241
CAAGGGGC	-0.284
GGATGACA	0.0167
AGGGTTAA	0.0733
AGACAGCA	-0.00449
CACCCGAA	0.0151
GAGTGCGA	-0.116
ACAACTCC	-0.0778
ATAATCTG	0.249
CCACTACC	-0.134
GCGGAGAC	-0.12

Series 4
Target: ABI1, truncated, D143A, DHFR fusion (Arabidopsis thaliana)
Technique: DHFR PCA, deep sequencing
Sample: yeast
Notes: methotrexate growth selection, single substitutions
With: (+)-ABA 17 µM
Reference: wild-type fitted maximum
Reading: higher = stronger binding
Parent: PYL1, truncated, DHFR fusion (Arabidopsis thaliana); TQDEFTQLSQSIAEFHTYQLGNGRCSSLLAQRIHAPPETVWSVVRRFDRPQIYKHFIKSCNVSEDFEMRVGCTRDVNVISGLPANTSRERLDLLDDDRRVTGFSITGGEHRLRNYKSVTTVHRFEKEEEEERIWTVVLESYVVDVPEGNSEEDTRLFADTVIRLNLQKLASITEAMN
Change	relative binding score [%]
N85C	82.3
L8Q	52.5
V40T	3.06
Q2M	78.7
Y53S	-3.03
G108T	6.16
I133F	93.9
C25S	49.9
F5I	79.1
T6F	70.6
D65I	49.4
G71E	-11.3
D96P	21.1
G107H	44
T119R	0.0198
P37Y	23
V78F	73.8
A35P	-13.6
N22I	82.3
C25A	82.1
S63N	80.9

Series 5
Target: RING finger protein unkempt homolog, zinc fingers 1-6, GST-SBP tag (UNK, Homo sapiens, UniProt Q9C0B0, residues 30-357)
Technique: RNA Bind-n-Seq
Molecule type: RNA
Sample: in vitro
Concentration: not given
Notes: RNA with constant flanks, human and mouse sites, ends assumed
Reference: input RNA pool
Reading: higher = stronger binding
All sequences stand within: GGGAGUUCUACAGUCCGACGAUC … CAACAGAGGAUUGAGCAUCA
Residues (chain): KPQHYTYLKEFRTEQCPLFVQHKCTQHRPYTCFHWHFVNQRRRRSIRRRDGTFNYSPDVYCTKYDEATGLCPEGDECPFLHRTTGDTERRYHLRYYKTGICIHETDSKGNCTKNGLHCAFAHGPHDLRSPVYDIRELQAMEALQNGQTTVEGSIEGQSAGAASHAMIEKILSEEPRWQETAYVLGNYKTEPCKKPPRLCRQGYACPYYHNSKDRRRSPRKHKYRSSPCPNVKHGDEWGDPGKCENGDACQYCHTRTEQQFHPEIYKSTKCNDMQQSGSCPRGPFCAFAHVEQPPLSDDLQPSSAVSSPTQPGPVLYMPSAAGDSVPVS
Sequence	bound/input enrichment
GUCCCCACAAAGGCCAAGUUCCCUGCAUUUGAACUCUGAAAAGAAAGCAUGUCUCCUGCCGCUUACAGCAUGACUCUGUGUAUUACUCUGGGCUACAUAUUGCCCUUGCUUUUGAAGGAA	0.223 ratio
CCUCCCACCCCAGCUCCUGCAACACAAAUGCCCAGCACACCAGGGUUUGUGGGAUACAAUCCAUACAGUCAUCUCGCCUACAACAACUACAGGCUGGGAGGGAACCCGGGCACCAACAGC	0.163 ratio
ACUCAGAAGCCGAUUCAUCAGCUUUUUGAUUACAUCUGUGGAGUAAGCACAGGGGCCAUAUUAGCAUUUAUGCUGGGAUUGUUUCACAUGCCGCUGGAUGAAUGUGAGGAACUCUAUCGA	0.324 ratio
CCAAUCGGACUGCACAAGAAGCGGAUUGAACUGUCUGUUCUUUCAUACCAUUCCUCCUUUAGCAUCAGAAAGAGCCGGUUGGUUCAUGGGUACAUUGUUUUUUAUUCAGCCAAACGUAAG	2.22 ratio
CAAAUACUAGAGAAUCUUUCCACUUCGCCUCUGGCUGAGCCACCCCACUUUGUUGAACAUAUUAGAUCUACCUUGAUGUUUUUAAAAAAACACCCAUCUCCAGCUCACACACUGUUUUCU	2.09 ratio
UUUGUAGGCUUCCUGGGGUGCUAUGGGGCCAUCCAGGAGUCCCAGUGUCUGCUGGGGACGUUCUUCACCUGCCUUGUGAUCCUGUUUGCCUGUGAGGUGGCUGCAGGCAUCUGGGGCUUC	0.107 ratio
AAGGUGGAGCCGAGCAGCCAGAGCCCUGGGCGUUCACCCAGGCUUCCACGUUCCCCUCGCUUGGGUCACCGUCGAACCAACAGUACGGGAGGGAGUUCGGGAAGCAGUGUUGGAGGUGGC	0.212 ratio
CCUCCAAGGCAAAGACAGGAGAGCUAUGCUGGUGGUGAGGCGGCAGGCUGCACGCUGGACAACAGCUUAACCAAUAUCCAGUGGCUUGGAAAGAUGAGUUCUGACGGGCUGGGCCCCUGC	0.0452 ratio
AAUCACUAAACUGUGCCUAAAGAACAUAACUGCCAUAUUAAUGUUUUGGUUUAUAUCCUCUAUAGUAAUAGAAAAACAUUUAAUACUUGUAAUGCUGAUGUGUUAAUUUGAUACCAGUUG	0.786 ratio
CUGAGAGCAGGAGAGGUUCCGAAACCUUUUCCAACACAUUACAAAGAUUUGUGGGAUAACAAACAUGUGAAAAUGCCUUGUUCGGAACAAAACUUGUACCCUGUGGAAGAUGAGAAUGGU	0.137 ratio
UCGUAUAUCAGAUAUCUGGGACCCAAAGUCCCAACCUUUACAAACCUGGGUCUCUGUUUUAUAGAAUUUAAAAUACCUGGGAUUCAGGACCCUGUGUGCACCAAUAUCCGGGGUUCAUCC	0.679 ratio

For quick reference, copied from above (series 1):
Change	normalised enrichment score
SFEPRNLLWLFED [S9W]	0.116
SFEPRNLNSLFED [L8N]	0.136
SFEPRNLLSLFEY [D13Y]	0.0557
SFAPRNLLSLFED [E3A]	0.0295
SFEPRNDLSLFED [L7D]	0.146
SFHPRNLLSLFED [E3H]	0.128
SFEPRNLLFLFED [S9F]	0.0604
SFEPRNSLSLFED [L7S]	0.136
SFEPRNLLSLFDD [E12D]	0.14
SFEPRNLLSNFED [L10N]	0.184
SFEHRNLLSLFED [P4H]	0.0736
SFEPRHLLSLFED [N6H]	0.087
SFEFRNLLSLFED [P4F]	0.118
SFEPRNLHSLFED [L8H]	0.13
